Measurements of several laboratories.
Every numbered part comes from another study and shows a few of its results, in no order.

Series 1 — technique: aptamer microarray, sandwich; molecule type: DNA with 2'F-ANA; sample: in vitro; concentration: 200 nM; added: Cy3 exosite-II aptamer, 400 nM; direction: higher = stronger binding
Target: Prothrombin, mature alpha-thrombin (F2, Homo sapiens, UniProt P00734)
Notes: whole 15-mer aptamer, many near background
| Oligonucleotide | mean fluorescence intensity |
| --- | --- |
| GGTTGGTGTGGTTGG (2'F-ANA at 6 7 10 11 12 13 15) | 173 a.u. |
| GGTTGGTGTGGTTGG (2'F-ANA at 4 6 8 10 12 13) | 80.4 a.u. |
| GGTTGGTGTGGTTGG (2'F-ANA at 2 9 10 12 15) | 177 a.u. |

Series 2 — technique: protein-binding microarray; molecule type: double-stranded DNA, one strand shown; sample: in vitro; concentration: 2540 nM top; notes: 60-bp whole probe; added: salmon DNA 0.4 mg/ml; relative to: random background probes; direction: higher = stronger binding
Target: Interferon regulatory factor 3, full length, phosphomimetic (IRF3, Homo sapiens, UniProt Q14653, residues 1-427, S386D/S396D/S398D/S402D/T404D/S405D)
Target sequence (chain): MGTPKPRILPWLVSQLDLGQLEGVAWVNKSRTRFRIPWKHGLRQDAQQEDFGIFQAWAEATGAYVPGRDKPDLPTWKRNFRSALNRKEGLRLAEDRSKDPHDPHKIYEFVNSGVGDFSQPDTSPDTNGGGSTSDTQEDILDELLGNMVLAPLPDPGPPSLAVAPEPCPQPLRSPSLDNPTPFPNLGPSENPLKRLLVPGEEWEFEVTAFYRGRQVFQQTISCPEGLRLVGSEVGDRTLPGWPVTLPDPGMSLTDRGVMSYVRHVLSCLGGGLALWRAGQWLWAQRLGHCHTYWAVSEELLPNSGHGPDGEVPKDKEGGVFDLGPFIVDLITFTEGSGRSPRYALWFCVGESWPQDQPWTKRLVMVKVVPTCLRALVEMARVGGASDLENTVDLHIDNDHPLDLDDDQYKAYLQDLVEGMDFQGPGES
| Oligonucleotide | fitted relative affinity |
| --- | --- |
| GCCTAGCACTTGGGACTGGGTCTCGGTTAGTGCTAGGTCTTGATTCGCTTGACGCTGCTG | -1.09 z-score |
| GCCTAGCACGACGATTACGGGTTTCGAGACGTGCTAGTCTTGATTCGCTTGACGCTGCTG | 0.744 z-score |
| GCCTAGCACCCTAGTTTTACTTTCTATCTGTGCTAGGTCTTGATTCGCTTGACGCTGCTG | 4.54 z-score |

Single results of other studies
KAT6A winged helix 2, GST fusion: Histone acetyltransferase KAT6A, winged helix 2, GST fusion (KAT6A, Homo sapiens, UniProt Q92794, residues 85-181)
| Molecule | target | assay | system | conditions | scale | endpoint | result |
| --- | --- | --- | --- | --- | --- | --- | --- |
| CCCTCACC | KAT6A winged helix 2, GST fusion | protein binding microarray | double-stranded DNA, one strand shown, in vitro | not given, 8-mer, flanks averaged, mean of 2 arrays, mostly near background | relative to: not given, higher = stronger binding | E-score | 0.128 |
| PhoQ, residues 284 288 289 292 302 303 TLASMF | PhoP, residues 12 14 15 18 19 NNFVT (Escherichia coli, UniProt P23836) | Sort-seq, measured: YFP reporter | E. coli | PhoQ-PhoP variant library, added: 10 µM Mg2+ | relative to: high Mg2+ state, higher = stronger signaling | fold induction | 2.83 |
| ATCAAATG | KAT6A winged helix 2, GST fusion | protein binding microarray | double-stranded DNA, one strand shown, in vitro | not given, 8-mer, flanks averaged, mean of 2 arrays, mostly near background | relative to: not given, higher = stronger binding | E-score | -0.0248 |

Repeated from above (single results of other studies):
| Molecule | target | assay | system | conditions | scale | endpoint | result |
| --- | --- | --- | --- | --- | --- | --- | --- |
| ATCAAATG | KAT6A winged helix 2, GST fusion | protein binding microarray | double-stranded DNA, one strand shown, in vitro | not given, 8-mer, flanks averaged, mean of 2 arrays, mostly near background | relative to: not given, higher = stronger binding | E-score | -0.0248 |
